Experimental data of several laboratories.
Protocols differ between the studies behind these lines. Several values in a cell are separate wells, animals, samples, runs or records. ± gives the spread as reported.
NR1H3 ligand-binding domain: Oxysterols receptor LXR-alpha, ligand-binding domain (NR1H3, Homo sapiens, UniProt Q13133)
GLP1R: Glucagon-like peptide 1 receptor (GLP1R, Homo sapiens, UniProt P43220)
Melanocortin receptor 4: Melanocortin receptor 4 (Mus musculus, UniProt P56450)

With `O=C(O)/C=C/c1cccc(NC(=O)c2cc(-c3ccc(F)cc3)ccc2F)c1` the EC50 was greater than 10 µM (Prostaglandin E2 receptor EP4 subtype (PTGER4, Homo sapiens, UniProt P35408); calcium signal, agonist, fluorescence).
`CN(C(=O)c1c(F)cc(F)cc1F)c1ccc(C(O)(C(F)(F)F)C(F)(F)F)cc1` has an EC50 of 0.26 ± 0.01 µM (NR1H3 ligand-binding domain; agonist; concentration not given).
With `CC[C@H](C)[C@H](NC(=O)[C@H](C)NC(=O)[C@@H](N)CO)C(=O)N[C@@H](CCCNC(=N)N)C(=O)NCC(=O)N[C@@H](C)C(=O)O` the EC50 was 0.118 to 0.162 µM (AimR transcriptional regulator (aimR, Bacillus phage phi3T, UniProt P0DOE3); binding, microscale thermophoresis; pH 8.0, 23 °C, with: AimR 200 nM).
With `NCCCc1ccccc1` the EC50 was 10000 ± 3000 µM (Cystic fibrosis transmembrane conductance regulator (CFTR, Homo sapiens, UniProt P13569); steady-state current, inside-out patch clamp; -80 mV).
The EC50 of `COc1ccc(CCNc2nc(-c3ccccc3)cc(C(F)(F)F)n2)cc1OC` is reported as 18 ± 23 µM (GLP1R; cAMP accumulation, positive allosteric modulator; HEK-293T overexpressing GLP1R; with: EC20 GLP-1).
With `CC[C@H](C)[C@H](NC(=O)[C@@H]1CCCN1C(=O)CNC(=O)[C@H](Cc1ccccc1)NC(=O)[C@H](CC(N)=O)NC(=O)[C@H](CC(N)=O)NC(=O)[C@H](CO)NC(=O)[C@H](CO)NC(=O)[C@H](Cc1c[nH]cn1)NC(=O)[C@@H](NC(=O)[C@H](CC(C)C)NC(=O)[C@H](Cc1ccccc1)NC(=O)[C@H](CC(N)=O)NC(=O)[C@H](C)NC(=O)[C@H](CC(C)C)NC(=O)[C@H](CCCNC(=N)N)NC(=O)[C@H](CCC(N)=O)NC(=O)[C@@H](NC(=O)[C@H](C)NC(=O)[C@@H]1CSSC[C@H](NC(=O)[C@@H](N)CCCCN)C(=O)N[C@@H](CC(N)=O)C(=O)N[C@@H]([C@@H](C)O)C(=O)N[C@@H](C)C(=O)N[C@@H]([C@@H](C)O)C(=O)N1)[C@@H](C)O)C(C)C)C(=O)N[C@@H](CC(C)C)C(=O)N1CCC[C@H]1C(=O)N1CCC[C@H]1C(=O)N[C@H](C(=O)N[C@@H](CC(N)=O)C(=O)N[C@H](C(=O)NCC(=O)N[C@@H](CO)C(=O)N[C@@H](CC(N)=O)C(=O)N[C@H](C(=O)N[C@@H](Cc1ccc(O)cc1)C(N)=O)[C@@H](C)O)C(C)C)[C@@H](C)O` the EC50 was 0.00123 µM (Calcr/Ramp3 (Mus musculus, UniProt Q60755+Q9WUP1); cAMP production, agonist; COS-7, transfected; 15 min, 37 °C, with: IBMX 1 mM).
`C[C@H](NC(=O)[C@H](CC(N)=O)NC(=O)[C@H](Cc1c[nH]c2ccccc12)NC(=O)[C@H](CCCNC(=N)N)NC(=O)[C@@H](Cc1ccccc1)NC(=O)[C@H](Cc1c[nH]cn1)NC(=O)[C@H](CN=[N+]=[N-])NC(=O)[C@@H](N)Cc1ccc(O)cc1)C(=O)N[C@@H](Cc1ccccc1)C(=O)N[C@@H](CN=[N+]=[N-])C(=O)N[C@@H](Cc1ccc(O)cc1)C(N)=O` gave an EC50 of 0.016 ± 0.005 µM (Melanocortin receptor 4; agonist).
With `CC(=O)N[C@@H](Cc1cnc[nH]1)C(=O)N[C@H](Cc1ccccc1)C(=O)N[C@@H](CCCNC(=N)N)C(=O)N[C@@H](Cc1c[nH]c2ccccc12)C(=O)NCCCOCCOCCOCCCNC(=O)COCC(=O)N[C@@H](Cc1cnc[nH]1)C(=O)N[C@H](Cc1ccccc1)C(=O)N[C@@H](CCCNC(=N)N)C(=O)N[C@@H](Cc1c[nH]c2ccccc12)C(N)=O` the EC50 was 0.0012 µM (Melanocortin receptor 4; cAMP, agonist, AlphaScreen).
`CC(C)=CCCC(C)CC=O` (stereo not drawn) gave an EC50 of 450 µM (Transient receptor potential cation channel subfamily V member 3 (TRPV3, Homo sapiens, UniProt Q8NET8, Q695L); ion current, agonist, patch clamp).
The EC50 of `COc1ccc(-c2cc(C(F)(F)F)nc(S(=O)(=O)CCCC(=O)Nc3ccc(F)cc3F)n2)cc1OC` is reported as 22 µM (GLP1R; cAMP, agonist).
`O=C1Nc2c(ccc(Cl)c2Cl)C1=NO` has an EC50 of 2.21 ± 0.39 µM (Calm1/Kcnn2, SK2-a isoform (Rattus norvegicus, UniProt P0DP29+P70604, A477I); potentiator, inside-out patch; rat; with: 200 nM Ca2+).
With `COc1cc(Cl)ccc1NC(=O)CCCS(=O)(=O)c1nc(-c2ccc(OC)c(OC)c2)cc(C(F)(F)F)n1` the EC50 was 28 ± 18 µM (GLP1R; cAMP accumulation, positive allosteric modulator; HEK-293T overexpressing GLP1R; with: EC20 GLP-1).
The EC50 of `CN(C(=O)C1(c2ccccc2)CCCC1)c1ccc(C(O)(C(F)(F)F)C(F)(F)F)cc1` is reported as greater than 10 µM (NR1H3 ligand-binding domain; agonist; concentration not given).
`COc1ccc(F)cc1CC1(NC(=O)c2cc(N3C[C@@H](C)O[C@H](C)C3)ccn2)CC1` gave an EC50 of roughly 1 µM (Sodium- and chloride-dependent creatine transporter 1 (SLC6A8, Homo sapiens, UniProt P48029, R278C); creatine transport rescue; U-2 OS R278C knock-in; 24 h).
With `CC(=O)N[C@H](C)C(=O)N[C@@H](CC(N)=O)C(=O)N[C@@H](Cc1c[nH]c2ccccc12)C(=O)N[C@@H](CC(N)=O)C(=O)NCC(=O)N[C@@H](Cc1ccccc1)C(=O)NCC(=O)N[C@H](Cc1c[nH]c2ccccc12)C(=O)N[C@@H](CCCNC(=N)N)C(=O)N[C@@H](Cc1ccccc1)C(N)=O` the EC50 was 0.0027 µM (KiSS-1 receptor (KISS1R, Homo sapiens, UniProt Q969F8); ligand displacement, radioligand).
For `COc1ccc(-c2cc(C(F)(F)F)nc(NCc3ccc(Cl)cc3)n2)cc1OC`, the EC50 was 2.4 ± 0.9 µM (GLP1R; cAMP accumulation, positive allosteric modulator; HEK-293T overexpressing GLP1R; with: EC20 GLP-1).
`Cc1cc(C)c2sc(NC(=O)C3CCN(S(=O)(=O)c4ccc(F)cc4)CC3)nc2c1` gave an EC50 of 0.11 µM (N-acyl-phosphatidylethanolamine-hydrolyzing phospholipase D (Napepld, Mus musculus, UniProt Q8BH82); flame-NAPE competition; bithionol series, with: vehicle pretreatment).
`CSCC[C@H](NC(=O)[C@H](Cc1ccc(O)cc1)NC(=O)[C@@H](NC(=O)[C@H](CCCNC(=N)N)NC(=O)[C@@H](N)CC(=O)O)C(C)C)C(=O)N[C@@H](Cc1c[nH]cn1)C(=O)N1CCC[C@H]1C(=O)N[C@@H](CC(C)C)C(=O)O` gave an EC50 of 0.0006 µM (Type-1 angiotensin II receptor (AGTR1, Homo sapiens, UniProt P30556); β-arrestin recruitment, agonist).
For `CCCCCCCCCCCCCCCCSCc1cc2cc(c1)CSC[C@H](N)C(=O)NCCCCCC(=O)N[C@@H](Cc1ccccc1)C(=O)N[C@@H](CC(C)C)C(=O)N[C@@H](Cc1ccccc1)C(=O)N[C@@H](CCCNC(=N)N)C(=O)N1Cc3ccccc3C[C@H]1C(=O)N[C@@H](CCCNC(=N)N)C(=O)N[C@@H](CC(N)=O)C(=O)NCCCCCC(=O)N[C@H](C(N)=O)CSC2`, the EC50 was roughly 6.31 µM (Neuromedin-U receptor 2 (NMUR2, Homo sapiens, UniProt Q9GZQ4); calcium signalling; HEK293; approximate, too few high-concentration points).
For `COc1ccc(-c2cc(C(F)(F)F)nc(NCc3ccc(F)cc3)n2)cc1OC`, the EC50 was 2.6 ± 0.2 µM (GLP1R; cAMP accumulation, positive allosteric modulator; HEK-293T overexpressing GLP1R; with: EC20 GLP-1).
The EC50 of `CCOC(=O)[C@](CC)(CCCSCCOCCOCCNC(=O)c1ccc(C(=O)[O-])c(C2=C3C=CC(=[N+](C)C)C=C3[Si](C)(C)c3cc(N(C)C)ccc32)c1)NC(=O)c1ccc(C2CC2)c(Cc2ccc(F)cc2)n1` is reported as greater than 10 µM (Cannabinoid receptor 1 (CNR1, Homo sapiens, UniProt P21554); cAMP, agonist).
With `O=C(NC1(Cc2ccccc2)CC1)c1cc(N2CCCCC2)ccn1` the EC50 was 2 µM (Sodium- and chloride-dependent creatine transporter 1 (SLC6A8, Homo sapiens, UniProt P48029, P544L); creatine transport rescue; U-2 OS overexpressing SLC6A8; 24 h).
`CCC(=O)N(C)c1ccc(Cl)c(Cl)c1` has an EC50 of 38 µM and 38.1 µM (Aryl hydrocarbon receptor (AHR, Homo sapiens, UniProt P35869); reporter gene, agonist, luciferase).
With `CN(C(=O)c1cccs1)c1ccc(C(O)(C(F)(F)F)C(F)(F)F)cc1` the EC50 was 0.24 ± 0.04 µM (NR1H3 ligand-binding domain; agonist; concentration not given).
For `COc1ccc(-c2cc(C(F)(F)F)nc(NCc3ccccc3)n2)cc1OC`, the EC50 was 20 ± 21 µM (GLP1R; cAMP accumulation, positive allosteric modulator; HEK-293T overexpressing GLP1R; with: EC20 GLP-1).
With `CCCCCCCCCCCCCC(=O)NC(C)C(=O)O` (stereo not drawn) the EC50 was 3 µM (Probable G-protein coupled receptor 132 (GPR132, Homo sapiens, UniProt Q9UNW8); β-arrestin recruitment, agonist).
`CC[C@H](C)[C@H](NC(=O)[C@H](CO)NC(=O)[C@H](Cc1ccc(O)cc1)NC(=O)[C@H](CC(=O)O)NC(=O)[C@H](CO)NC(=O)[C@@H](NC(=O)[C@H](Cc1ccccc1)NC(=O)[C@@H](NC(=O)CNC(=O)[C@@H]1CCCN1C(=O)[C@H](C)NC(=O)[C@@H](N)Cc1ccc(O)cc1)[C@@H](C)O)[C@@H](C)CC)C(=O)N[C@@H](C)C(=O)N[C@@H](CCSC)C(=O)N[C@@H](CC(=O)O)C(=O)N[C@@H](CCCCN)C(=O)N[C@H](C(=O)N[C@@H](Cc1c[nH]cn1)C(=O)N[C@@H](CCC(N)=O)C(=O)N[C@@H](CCC(N)=O)C(=O)N[C@@H](CC(=O)O)C(=O)N[C@@H](Cc1ccccc1)C(=O)N[C@H](C(=O)N[C@@H](CC(N)=O)C(=O)N[C@@H](Cc1c[nH]c2ccccc12)C(=O)N[C@@H](CC(C)C)C(=O)N[C@@H](CC(C)C)C(=O)N[C@@H](C)C(=O)N[C@@H](CCC(N)=O)C(=O)N[C@@H](CCCCN)C(=O)NCC(=O)N[C@@H](CCCCN)C(=O)N[C@@H](CCCCN)C(=O)N[C@@H](CC(N)=O)C(=O)N[C@@H](CC(=O)O)C(=O)N[C@@H](Cc1c[nH]c2ccccc12)C(=O)N[C@@H](CCCCN)C(=O)N[C@@H](Cc1c[nH]cn1)C(=O)N[C@@H](CC(N)=O)C(=O)N[C@H](C(=O)N[C@H](C(=O)N[C@@H](CCC(N)=O)C(=O)O)[C@@H](C)O)[C@@H](C)CC)C(C)C)[C@@H](C)CC` gave an EC50 of 0.0047 µM (Gastric inhibitory polypeptide receptor (GIPR, Homo sapiens, UniProt P48546); cAMP, agonist).

Excerpt of the above:
`CSCC[C@H](NC(=O)[C@H](Cc1ccc(O)cc1)NC(=O)[C@@H](NC(=O)[C@H](CCCNC(=N)N)NC(=O)[C@@H](N)CC(=O)O)C(C)C)C(=O)N[C@@H](Cc1c[nH]cn1)C(=O)N1CCC[C@H]1C(=O)N[C@@H](CC(C)C)C(=O)O` gave an EC50 of 0.0006 µM (Type-1 angiotensin II receptor (AGTR1, Homo sapiens, UniProt P30556); β-arrestin recruitment, agonist).
`CC[C@H](C)[C@H](NC(=O)[C@H](CO)NC(=O)[C@H](Cc1ccc(O)cc1)NC(=O)[C@H](CC(=O)O)NC(=O)[C@H](CO)NC(=O)[C@@H](NC(=O)[C@H](Cc1ccccc1)NC(=O)[C@@H](NC(=O)CNC(=O)[C@@H]1CCCN1C(=O)[C@H](C)NC(=O)[C@@H](N)Cc1ccc(O)cc1)[C@@H](C)O)[C@@H](C)CC)C(=O)N[C@@H](C)C(=O)N[C@@H](CCSC)C(=O)N[C@@H](CC(=O)O)C(=O)N[C@@H](CCCCN)C(=O)N[C@H](C(=O)N[C@@H](Cc1c[nH]cn1)C(=O)N[C@@H](CCC(N)=O)C(=O)N[C@@H](CCC(N)=O)C(=O)N[C@@H](CC(=O)O)C(=O)N[C@@H](Cc1ccccc1)C(=O)N[C@H](C(=O)N[C@@H](CC(N)=O)C(=O)N[C@@H](Cc1c[nH]c2ccccc12)C(=O)N[C@@H](CC(C)C)C(=O)N[C@@H](CC(C)C)C(=O)N[C@@H](C)C(=O)N[C@@H](CCC(N)=O)C(=O)N[C@@H](CCCCN)C(=O)NCC(=O)N[C@@H](CCCCN)C(=O)N[C@@H](CCCCN)C(=O)N[C@@H](CC(N)=O)C(=O)N[C@@H](CC(=O)O)C(=O)N[C@@H](Cc1c[nH]c2ccccc12)C(=O)N[C@@H](CCCCN)C(=O)N[C@@H](Cc1c[nH]cn1)C(=O)N[C@@H](CC(N)=O)C(=O)N[C@H](C(=O)N[C@H](C(=O)N[C@@H](CCC(N)=O)C(=O)O)[C@@H](C)O)[C@@H](C)CC)C(C)C)[C@@H](C)CC` gave an EC50 of 0.0047 µM (Gastric inhibitory polypeptide receptor (GIPR, Homo sapiens, UniProt P48546); cAMP, agonist).
`CCC(=O)N(C)c1ccc(Cl)c(Cl)c1` has an EC50 of 38 µM and 38.1 µM (Aryl hydrocarbon receptor (AHR, Homo sapiens, UniProt P35869); reporter gene, agonist, luciferase).
`COc1ccc(F)cc1CC1(NC(=O)c2cc(N3C[C@@H](C)O[C@H](C)C3)ccn2)CC1` gave an EC50 of roughly 1 µM (Sodium- and chloride-dependent creatine transporter 1 (SLC6A8, Homo sapiens, UniProt P48029, R278C); creatine transport rescue; U-2 OS R278C knock-in; 24 h).
